{"data": "Experimental data gathered from unrelated publications", "note": "Parts stem from different laboratories: compare values within a part only."}
{"data": "Set 1", "target": "Ras GTPase-activating protein-binding protein 1, full length (G3BP1, Homo sapiens, UniProt Q13283)", "technique": "RNA Bind-n-Seq", "molecule type": "RNA", "sample": "in vitro", "tested at": "200 nM", "notes": "whole 134-nt RNA, ends assumed", "with": "150 mM KCl", "reference": "input library", "direction": "higher = stronger binding", "shared flanks, not repeated": "GGGAGUUCUACAGUCCGACGAUC … UGGAAUUCUCGGGUGUCAAGG", "UniProt Q13283, sequence (whole entry, looked up)": "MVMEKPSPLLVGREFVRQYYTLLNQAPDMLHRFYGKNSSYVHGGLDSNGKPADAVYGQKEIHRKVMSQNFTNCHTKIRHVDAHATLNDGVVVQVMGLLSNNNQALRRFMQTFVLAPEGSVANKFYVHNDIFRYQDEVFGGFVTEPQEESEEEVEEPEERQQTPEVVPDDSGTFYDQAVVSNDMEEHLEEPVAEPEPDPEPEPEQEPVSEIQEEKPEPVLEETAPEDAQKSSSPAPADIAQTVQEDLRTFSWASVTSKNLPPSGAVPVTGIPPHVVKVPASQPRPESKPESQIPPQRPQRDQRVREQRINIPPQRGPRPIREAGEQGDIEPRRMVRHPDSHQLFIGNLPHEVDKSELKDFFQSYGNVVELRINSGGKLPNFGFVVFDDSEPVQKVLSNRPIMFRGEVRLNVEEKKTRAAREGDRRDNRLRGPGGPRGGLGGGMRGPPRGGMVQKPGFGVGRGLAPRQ"}
{"Strand": "GAGCUGGAAGCUAUCAAAGCUCGAGUCAGGGAGAUGGAGGAAGAAGCUGAGAAGCUAAAGGAGCUACAGAACGAGGUAGAGAAGCAGAUG", "log2 enrichment": -0.451}
{"Strand": "AGUCCUGUGCUACACAUCGUAUGUACCGAAUCAAAUUUUUUUAAAUUUAAAUUUAAAAAAGUAUUAUGUUACGCCGUUCGGAUCUGCACU", "log2 enrichment": -1.81}
{"Strand": "CCUGUGCUACACAUCGUAUGUACCGAAUCGGGUUUUUUUGGUUUUUUUGGUUUUUUUGGGGAAAGUAUUAUGUUACGCCGUUCGGAUCUG", "log2 enrichment": -1.21}
{"Strand": "UCCUGUGCUACACAUCGUAUGUACCGAAUCGGGUUUUUUGGUUUUUUGGGGUUUUUUGGAAAGUAUUAUGUUACGCCGUUCGGAUCUGCA", "log2 enrichment": -0.529}
{"Strand": "GUCCUGUGCUACACAUCGUAUGUACCGAAUCGGAAAAAGGGAAAAAGGGGAAAAAGGGAAAGUAUUAUGUUACGCCGUUCGGAUCUGCAC", "log2 enrichment": -0.436}
{"Strand": "AAGUCCUGUGCUACACAUCGUAUGUACCGAAUCGGCCCCGGGCCCCGGGCCCCGGGAAAGUAUUAUGUUACGCCGUUCGGAUCUGCACUU", "log2 enrichment": -1.2}
{"Strand": "AAGUCCUGUGCUACACAUCGUAUGUACCGAAUCGGAAAAAGGUUUUUUUGGAAAGGAAAGUAUUAUGUUACGCCGUUCGGAUCUGCACUU", "log2 enrichment": -1.77}
{"Strand": "UGGCCCUGGUGGCAUGCGGGGAGGAAGAGGUGGCCUCCUGGAUCGUGGUGGUCCCGGUGGAAUGUUCAGAGGUGGCCGUGGUGGAGACAG", "log2 enrichment": 0.143}
{"Strand": "UCCUGUGCUACACAUCGUAUGUACCGAAUCGGGAAAAAAGGGGAAAAAAGGAAAAAAGGAAAGUAUUAUGUUACGCCGUUCGGAUCUGCA", "log2 enrichment": -0.536}
{"data": "Set 2", "target": "RNA binding protein fox-1 homolog 2, RRM domain, GST-SBP tag (RBFOX2, Homo sapiens, UniProt O43251-10, residues 100-194)", "technique": "RNA Bind-n-Seq", "molecule type": "RNA", "sample": "in vitro", "tested at": "365 nM", "notes": "natural RNA segment, single round, ends assumed", "reference": "no-protein control", "direction": "higher = stronger binding", "shared flanks, not repeated": "GGGAGUUCUACAGUCCGACGAUC … UGGAAUUCUCGGGUGCCAA", "Construct (chain)": "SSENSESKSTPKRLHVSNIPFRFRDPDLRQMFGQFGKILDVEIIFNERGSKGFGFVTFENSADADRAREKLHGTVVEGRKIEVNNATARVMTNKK"}
{"Strand": "UCACUAAGCUGGCUGUGAAGAUUUUAAGUACAUUUCUGUGAAGACCUUAAAGUACUGUUCUUUAUUUAAUAAGAUACGCUACUACAUUGCUUUGUUUAUAAAUAGUUUAU", "RBNS enrichment (R)": 1.22}
{"Strand": "GUCCUUUGCCAUGAGGAAAAAGUGGUUUUUUGCUUCAUAUGGUAAAUCUAUAUUAUUCAUAUUGAAUGUAUUAACAGAUAAUGGUGCAAAAGCAUUCUUCCCAGGGGAAG", "RBNS enrichment (R)": 0.464}
{"Strand": "CCUCCCUAACUGGGCCCCGCUGGUCCCAUUUGCUCAUUAGAAUUUCCUCUCACAUCAGUGGGAUACAGAAUUCAGUUUCUCCCUUGCCAGGUCCUUGGGAUGGUUGACCC", "RBNS enrichment (R)": 0.416}
{"Strand": "CAAAGAUAAAGUUGUAUUUUUUUCUUAGAAUGGCCUUUAAUUCCCUGUGGCAAUUACAGUUUUUGACUUUUCCAUGUGAGAAUAAGGCCUUGGUAUUUCCCUAAGGGCAG", "RBNS enrichment (R)": 0.398}
{"Strand": "GUGAGGGUUUCAGUACAAAUGCUGCUGUCUAUUUCUGUGCACUUAACAAUGGAACCCAAACAGAAGGAAGAAAGCCUUGAUACCAAAAUUGGGAGUGAGGAUGUGUCCAU", "RBNS enrichment (R)": 0.485}
{"Strand": "UUAAAAUCUAAUUCAAACUAAUAGAAUUAAUGGAAUAUGUAAAUAGAAACGUGUAUAUUUUUUAUGAAACAUUACAGUUAGAGAUUUUUAAAUAAAGAAUUUUAAAACUC", "RBNS enrichment (R)": 0.662}
{"Strand": "UGGCCUCAGCUGAUCCAUGCUGUCUGACUCCCGGGGAGAGUUAGGAAGAUGCAAGGACCUCUCCUCAAGAGACUGUUGCCUGCCUGAAGCUUCUGUUCAGGCUCAUGCCA", "RBNS enrichment (R)": 0.965}
{"Strand": "GCAGCUCAGGGAGUGUUUUCCUGUGAGGCCUCCCCCAUCAGUGGACCAGAGGGAGAAGCCCGAUGCCCCAUCCCGGCUUUCCCGUAACGCACAGGACACGUGUGCAAUUC", "RBNS enrichment (R)": 0.336}
{"data": "Set 3", "target": "Sal-like protein 4, full length isoform B (SALL4, Homo sapiens, UniProt Q9UJQ4-2, residues 1-616)", "technique": "universal PBM", "molecule type": "double-stranded DNA, one strand shown", "sample": "in vitro", "tested at": "not given", "notes": "8-mer, flanks averaged, mean of replicates", "direction": "higher = stronger binding"}
{"Strand": "AACTGCGG", "E-score": -0.118}
{"Strand": "CAATTGTA", "E-score": 0.0509}
{"Strand": "CTCGCCAG", "E-score": -0.307}
{"Strand": "CAGAGTAA", "E-score": -0.0157}
{"Strand": "GGTATGGA", "E-score": -0.0354}
{"Strand": "GGCTCCCC", "E-score": -0.383}
{"Strand": "GATACCGA", "E-score": -0.0462}
{"Strand": "GTCTTTTA", "E-score": 0.02}
{"Strand": "AAATTTCG", "E-score": 0.171}
{"Strand": "CCTGGACG", "E-score": -0.335}
{"Strand": "ATCGTCCA", "E-score": -0.0469}
{"Strand": "ATCCGTTA", "E-score": 0.123}
{"Strand": "CTACTGTC", "E-score": 0.0202}
{"Strand": "ATTGACTA", "E-score": 0.0541}
{"Strand": "ACCACAGG", "E-score": -0.0888}
{"Strand": "GCACGTAC", "E-score": -0.154}
{"Strand": "CTTGTACC", "E-score": -0.00354}
{"Strand": "CTCGGGAC", "E-score": -0.243}
{"Strand": "CGAGCAGA", "E-score": -0.201}
{"Strand": "ACGGATCC", "E-score": -0.301}
{"Strand": "CCAACACC", "E-score": -0.275}
{"Strand": "AATCGGAC", "E-score": -0.13}
{"Strand": "CCCGGTGC", "E-score": -0.321}
{"Strand": "GAGGGTAA", "E-score": -0.0254}
{"data": "Set 4", "target": "Histone acetyltransferase KAT6A, winged helix 2, GST fusion (KAT6A, Homo sapiens, UniProt Q92794, residues 85-181)", "technique": "protein binding microarray", "molecule type": "double-stranded DNA, one strand shown", "sample": "in vitro", "tested at": "not given", "notes": "8-mer, flanks averaged, mean of 2 arrays, mostly near background", "reference": "not given", "direction": "higher = stronger binding", "Target sequence (chain)": "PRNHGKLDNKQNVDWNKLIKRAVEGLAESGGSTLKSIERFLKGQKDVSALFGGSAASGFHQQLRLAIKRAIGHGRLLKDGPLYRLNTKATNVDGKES"}
{"Strand": "GGCTCCCA", "E-score": 0.00763}
{"Strand": "AATTAATA", "E-score": 0.254}
{"Strand": "AGCACTCG", "E-score": 0.0818}
{"Strand": "CTGCTTTC", "E-score": 0.0228}
{"Strand": "AGTTCTTA", "E-score": 0.0843}
{"Strand": "CCCTTTCC", "E-score": 0.0652}
{"Strand": "AAGAGCCA", "E-score": 0.057}
{"Strand": "ACGGATGA", "E-score": -0.0288}
{"Strand": "GACGGTAA", "E-score": -0.212}
{"Strand": "AAACAACC", "E-score": 0.14}
{"Strand": "ACACACAT", "E-score": -0.0188}
{"Strand": "ATTAGGAC", "E-score": -0.246}
{"Strand": "TAGCCGCA", "E-score": 0.206}
{"Strand": "AAGCACGT", "E-score": -0.0522}
{"Strand": "ACTATCTC", "E-score": -0.147}
{"Strand": "GCGTTAAA", "E-score": -0.0277}
{"Strand": "AGCCACAG", "E-score": -0.141}
{"Strand": "TGCAGGAA", "E-score": -0.0353}
{"Strand": "CAGGTATC", "E-score": -0.0753}
{"Strand": "ATGCTTTG", "E-score": 0.0179}
{"Strand": "ATCGTGAA", "E-score": -0.133}
{"Strand": "GGATCAAC", "E-score": 0.0544}
{"Strand": "CGCTTAAA", "E-score": -0.00793}
{"Strand": "TTCGCGAA", "E-score": 0.245}
{"note": "For quick reference, copied from above (set 4):"}
{"Strand": "AGCCACAG", "E-score": -0.141}
{"Strand": "TGCAGGAA", "E-score": -0.0353}
{"Strand": "CAGGTATC", "E-score": -0.0753}
{"Strand": "ATGCTTTG", "E-score": 0.0179}
